Experimental data pooled from the literature.
Each line is one published result; not all experiments were run side by side.
Method: steady-state kinetics
B1: enzyme W53F (Thermoplasma volcanium, UniProt Q978S7); chain MAFHGLVKYSDITVEGYPKIQYHGFIGNNRTAMLVAMNGYIDFGCLPNFNSNAVFSSILDKNKGGYFAIFPSDTTDVYVDQYYKEMTNVLVTEFVKNGKIILRLTDFMPDSEYGKISFPEVHRFVESFSEPIDITIDFKPTFNYGQDKPIIEKDQHGFIFTTDKESIGISSEFPLRKNSDRIFGNVKMEPRSSSWIIALYGIHHLFRTTDYKSYLRLQETTDYWRKWASSSSYAGAYHSMVMRSALALKVLFYEPTGLMVAAPTASLPEAIGGERNWDYRFTWIRDTAYVIEALSSIGYKYEATEFLYDMMDMITRDNRIRTIYSIDDSNDLEERIIDYEGYRGSRPVRIGNKAVDQLQIDQYGSIVRAIHSMAKAGGIVNSYLWDFVEQVMAKIEYLWKYPDSSIWEFRTEPKQYVYSKVMSWAAFDSAISMAKDLGLSAPIKQWKSIQDEIKKEVLEKGFDTDTNSFVQYYGSKNIDAALLRLPILGFIPANDEKFLGTLSRIEKELMVDGYLFKRYREDDGLKGDEGSFLMLTFWYIEDLILMKRLKKAREVLESVLEKANHLGLYSEEIDEKSGDFLGNFPQALSHLGVIRVAPKLEEALLKRTSKINS
B2: enzyme S252E (Schizosaccharomyces pombe, UniProt P78804); chain MSTPYEPEFQQAYKEIVGSIESSKLFEVHPELKRVLPIISIPERVLEFRVTWEDDKGNCRVNTGYRVQFNSALGPYKGGLRFHPSVNLSILKFLGFEQIFKNALTGLPMGGGKGGSDFDPKGKSDNEIRRFSQAFMRQLFRYIGPQTDVPAGDIGVTGFVVMHMFGEYKRLRNEYSGVVTGKHMLTGGSNIRPEATGYGVVYYVKHMIEHRTKGAETLKGKRVAISGSGNVAQYAALKCIQEGAIVKSISDEKGVLIAKTAEGLVPEEIHEIMALKEKRASIADSASLCKKHHYIAGARPWTNVGEIDIALPCATQNEVSGEEAAALIKQGCRYVAEGSNMGSSAEAVEVFEKSRASGEGCWLAPGKAANAGGVAVSGLEMAQNAQFSTWTHAEVDAKLAGIMQNIFEQSTDVASKYCDSGSNNIPSLVDGANIAGFLKVATAMQAVGDWW
B3: efeB (Bacillus subtilis, UniProt P39597); chain IGASGLGGLAPLVQTAAKPSKKDEKEEEQIVPFYGKHQAGITTAHQTYVYFAALDVTAKDKSDIITLFRNWTSLTQMLTSGKKMSAEQRNQYLPPQDTGESADLSPSNLTVTFGFGPGFFEKDGKDRFGLKSKKPKHLAALPAMPNDNLDEKQGGGDICIQVCADDEQVAFHALRNLLNQAVGTCEVRFVNKGFLSGGKNGETPRNLFGFKDGTGNQSTKDDTLMNSIVWIQSGEPDWMTGGTYMAFRKIKMFLEVWDRSSLKDQEDTFGRRKSSGAPFGQKKETDPVKLNQIPSNSHVSLAKSTGKQILRRAFSYTEGLDPKTGYMDAGLLFISFQKNPDNQFIPMLKALSAKDALNEYTQTIGSALYACPGGCKKGEYIAQRLLES
B4: enzyme (Pseudomonas aeruginosa, UniProt Q9I5Q5); chain MPRYLGLMSGTSLDGMDIVLIEQGDRTTLLASHYLPMPAGLREDILALCVPGPDEIARAAEVEQRWVALAAQGVRELLLQQQMSPDEVRAIGSHGQTIRHEPARHFTVQIGNPALLAELTGIDVVADFRRRDVAAGGQGAPLVPAFHQALFGDDDTSRAVLNIGGFSNVSLLSPGKPVRGFDCGPGNVLMDAWIHHQRGEHFDRDGAWAASGQVNHALLASLLADEFFAARGPKSTGRERFNLPWLQEHLARHPALPAADIQATLLELSARSISESLLDAQPDCEEVLVCGGGAFNTALMKRLAMLMPEARVASTDEYGIPPAWMEGMAFAWLAHRFLERLPGNCPDVTGALGPRTLGALYPA
B5: enzyme L71Q/Y136L (Bradyrhizobium diazoefficiens, UniProt Q45222); chain MIQTERAVQQVLEWGRSLTGFADEHAVEAVRGGQYILQRIHPSLRGTSARTGRDPQDETLIVTFYRELALQFWLDDCNDLGLISPEQLAAVEQALGQGVPCALPGFEGCAVLRASLATLAYDRRDYAQLLDDTRCLSAALRAGHAQAVAAERWSYAEYLHNGIDSIAYANVFCCLSLLWGLDMATLRARPAFRQVLRLISAIGRLQNDLHGCDKDRSAGEADNAVILLLQRYPAMPVVEFLNDELAGHTRMLHRVMAEERFPAPWGPLIEAMAAIRVQYYRTSTSRYRSDAVRGGQRAPA
B6: enzyme (Sargassum horneri, UniProt A0A097IUG6); chain SPMAVASPSGFQKAMKTTLSSLGIDKATGITKPTTIYRNLPYPEVFKHEEQNKEGEVTKNGTFCVSTGQFTGRSPKDKYFVKQAPSDGKLDWGKINKGVASEVYKNIYDKAVKHYNTNVDKMYVFDGYCGTSPKSRKNVRIITELAWQHHFAKNMFIRPETEEEVANFVPDFTIINACKIVNEDYKELGLNSEVAVVFNVEESKAVITGTWYGGEMKKGIFSMMNYWLPLDGVMSMHCSANKGKDGDTALFFGLSGTGKTTLSADPARYLIGDDEHGWDDDGIFNFEGGCYAKTVNLSRENEPEIYDAIKRDALLENVIIKKNGEPDYADVSRTENTRVSYPIYHIDNYEPSGMGDHPKSIVFLTCDAFGVLPPVSRLSPGQAMYHFLSGYTAKVAGTERGVTEPTPNFSAGFGAAFLTLHPTVYADLLQEKLDKHGTQCFLINTGWTGGGYGVGKRMSIKATRACVDAVLDGSINKTKFTKEPVFGFEVPQELPNVPSKVLNPREAWSDKASYDATRTKLGDMFKNNFTKFVKPGMTDYTAYGPK
B7: SABP2 A105N (Nicotiana tabacum, UniProt Q6RYA0); chain MKEGKHFVLVHGACHGGWSWYKLKPLLEAAGHKVTALDLAASGTDLRKIEELRTLYDYTLPLMELMESLSADEKVILVGHSLGGMNLGLAMEKYPQKIYAAVFLNAFMPDSVHNSSFVLEQYNERTPAENWLDTQFLPYGSPEEPLTSMFFGPKFLAHKLYQLCSPEDLALASSLVRPSSLFMEDLSKAKYFTDERFGSVKRVYIVCTEDKGIPEEFQRWQIDNIGVTEAIEIKGADHMAMLCEPQKLCASLLEIAHKYN
B8: ST3GAL1 (Sus scrofa, UniProt Q02745); chain ELSENFKKLMKYPYRPCTCTRCIEEQRVSAWFDERFNRSMQPLLTAKNAHLEEDTYKWWLRLQREKQPNNLNDTIRELFQVVPGNVDPLLEKRLVSCRRCAVVGNSGNLKESYYGPQIDSHDFVLRMNKAPTEGFEADVGSKTTHHFVYPESFRELAQEVSMILVPFKTTDLEWVISATTTGRISHTYVPVPAKIKVKKEKILIYHPAFIKYVFDRWLQGHGRYPSTGILSVIFSLHICDEVDLYGFGADSKGNWHHYWENNPSAGAFRKTGVHDGDFESNVTTILASINKIRIFKGR
B9: DCK (Homo sapiens, UniProt P27707); chain MATPPKRSCPSFSASSEGTRIKKISIEGNIAAGKSTFVNILKQLCEDWEVVPEPVARWCNVQSTQDEFEELTMSQKNGGNVLQMMYEKPERWSFTFQTYACLSRIRAQLASLNGKLKDAEKPVLFFERSVYSDRYIFASNLYESECMNETEWTIYQDWHDWMNNQFGQSLELDGIIYLQATPETCLHRIYLRGRNEEQGIPLEYLEKLHYKHESWLLHRTLKTNFDYLQEVPILTLDVNEDFKDKYESLVEKVKEFLSTL
B10: gdh (Bacillus subtilis, UniProt P12310); chain MYPDLKGKVVAITGAASGLGKAMAIRFGKEQAKVVINYYSNKQDPNEVKEEVIKAGGEAVVVQGDVTKEEDVKNIVQTAIKEFGTLDIMINNAGLENPVPSHEMPLKDWDKVIGTNLTGAFLGSREAIKYFVENDIKGNVINMSSVHEVIPWPLFVHYAASKGGIKLMTETLALEYAPKGIRVNNIGPGAINTPINAEKFADPKQKADVESMIPMGYIGEPEEIAAVAAWLASKEASYVTGITLFADGGMTQYPSFQAGRG
B11: CYP1A1 (Homo sapiens, UniProt P04798); chain MLFPISMSATEFLLASVIFCLVFWVIRASRPQVPKGLKNPPGPWGWPLIGHMLTLGKNPHLALSRMSQQYGDVLQIRIGSTPVVVLSGLDTIRQALVRQGDDFKGRPDLYTFTLISNGQSMSFSPDSGPVWAARRRLAQNGLKSFSIASDPASSTSCYLEEHVSKEAEVLISTLQELMAGPGHFNPYRYVVVSVTNVICAICFGRRYDHNHQELLSLVNLNNNFGEVVGSGNPADFIPILRYLPNPSLNAFKDLNEKFYSFMQKMVKEHYKTFEKGHIRDITDSLIEHCQEKQLDENANVQLSDEKIINIVLDLFGAGFDTVTTAISWSLMYLVMNPRVQRKIQEELDTVIGRSRRPRLSDRSHLPYMEAFILETFRHSSFVPFTIPHSTTRDTSLKGFYIPKGRCVFVNQWQINHDQKLWVNPSEFLPERFLTPDGAIDKVLSEKVIIFGMGKRKCIGETIARWEVFLFLAILLQRVEFSVPLGVKVDMTPIYGLTMKHACCEHFQMQLRS
B12: enzyme H47Q (Pseudomonas putida, UniProt Q88FY2); chain MRGRQKIAIVGAGLGGAAAATLLQQAGFDVEVFEQAPAFTRLGAGIQIGPNVMKIFRRMGLEQKLELMGSHPDFWFSRDGNTGDYLSRIPLGEFARREYGAAYITIHRGDLHALQIEAIQPGTVHFGKRLEKIVDEGDQVRLDFADGTHTVADIVIGADGIHSKIREELLGAEAPIYSGWVAHRALIRGVNLAQHADVFEPCVKWWSEDRHMMVYYTTGKRDEYYFVTGVPHEAWDFQGAFVDSSQEEMRAAFEGYHPTVQKLIDATESITKWPLRNRNPLPLWSRGRLVLLGDACHPMKPHMAQGACMAIEDAAMLTRCLQETGLSDHRTAFALYEANRKERASQVQSVSNANTWLYSQEDPAWVYGYDLYGQQLESGEAA
Chain of UniProt P0AE18 (whole entry, looked up): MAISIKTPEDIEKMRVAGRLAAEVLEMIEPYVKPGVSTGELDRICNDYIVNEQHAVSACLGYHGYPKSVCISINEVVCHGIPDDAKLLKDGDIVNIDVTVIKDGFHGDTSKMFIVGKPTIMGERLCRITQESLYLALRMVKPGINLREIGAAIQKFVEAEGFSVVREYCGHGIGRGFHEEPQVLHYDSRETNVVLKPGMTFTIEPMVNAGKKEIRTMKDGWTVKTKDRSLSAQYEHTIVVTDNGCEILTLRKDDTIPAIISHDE

Substance	substrate	pH	temperature	notes	with	Km [µM]
B1 (enzyme W53F)	OC[C@H]1O[C@H](O[C@H]2O[C@H](CO)[C@@H](O)[C@H](O)[C@H]2O)[C@H](O)[C@@H](O)[C@@H]1O	pH 3.7	30 °C			66500
B2 (enzyme S252E)	NC(=O)c1ccc[n+]([C@@H]2O[C@H](COP(=O)(O)OP(=O)(O)OC[C@H]3O[C@@H](n4cnc5c(N)ncnc54)[C@H](O)[C@@H]3O)[C@@H](O)[C@H]2O)c1	pH 7	30 °C	apparent		1900
enzyme (Streptomyces avermitilis, UniProt Q82IV1)	CC(C)=CCC/C(C)=C/CC/C(C)=C/CO[P@@](=O)(O)OP(=O)(O)O	pH 7	30 °C	refolded from inclusion bodies	Mg2+	0.125
B3 (efeB)	Nc1c(S(=O)(=O)O)cc(Nc2cccc(S(=O)(=O)CCOS(=O)(=O)O)c2)c2c1C(=O)c1ccccc1C2=O	pH 4	25 °C	apparent		40
B4 (enzyme)	Nc1ncnc2c1ncn2[C@@H]1O[C@H](COP(=O)(O)OP(=O)(O)OP(=O)(O)O)[C@@H](O)[C@H]1O	pH 7.5		apparent	MgCl2	96
enzyme (Treponema denticola, UniProt Q73LY9)	CC(=O)N[C@H]1[C@H](Oc2ccc([N+](=O)[O-])cc2)O[C@H](CO)[C@@H](O[C@@H]2O[C@H](CO)[C@H](O)[C@H](O)[C@H]2O)[C@@H]1O	pH 6	40 °C			2080
B5 (enzyme L71Q/Y136L)	C=C1CC[C@@H]2C(C)(C)CCC[C@@]2(C)[C@@H]1CC/C(C)=C/COP(=O)(O)OP(=O)(O)O					8.96
B6 (enzyme)	Nc1ncnc2c1ncn2[C@@H]1O[C@H](COP(=O)(O)OP(=O)(O)O)[C@@H](O)[C@H]1O	pH 6.5	25 °C		16 mM PEP	140
B7 (SABP2 A105N)	CC(=O)Oc1ccc([N+](=O)[O-])cc1	pH 7.2	22 °C			3000
B8 (ST3GAL1)	CC(=O)N[C@H]1[C@H]([C@H](O)[C@H](O)CO)O[C@](OP(=O)(O)OC[C@H]2O[C@@H](n3ccc(N)nc3=O)[C@H](O)[C@@H]2O)(C(=O)O)C[C@@H]1O					85.9
B9 (DCK)	Nc1ccn([C@@H]2O[C@H](CO)[C@@H](O)C2(F)F)c(=O)n1	pH 7.6				18.4
B10 (gdh)	NC(=O)c1ccc[n+]([C@@H]2O[C@H](COP(=O)(O)OP(=O)(O)OC[C@H]3O[C@@H](n4cnc5c(N)ncnc54)[C@H](O)[C@@H]3O)[C@@H](O)[C@H]2O)c1	pH 8	50 °C			1950
B11 (CYP1A1)	CC(C)=CCc1cc2c(cc1O)O[C@H](c1ccc(O)cc1)CC2=O	pH 7.4	37 °C			0.88
map (Escherichia coli, UniProt P0AE18)	CSCC[C@H](N)C(=O)Nc1ccc2c(C)cc(=O)oc2c1				Co2+	76
B12 (enzyme H47Q)	NC(=O)C1=CN([C@@H]2O[C@H](COP(=O)(O)OP(=O)(O)OC[C@H]3O[C@@H](n4cnc5c(N)ncnc54)[C@H](O)[C@@H]3O)[C@@H](O)[C@H]2O)C=CC1				FAD	18
